Measurements of several laboratories.
A part holds a random share of what one study measured. Positions count from the first letter of the parent shown.

Sample 1
Target: Centromere-binding protein 1, full length, N-terminal tag (CBF1, Saccharomyces cerevisiae, UniProt P17106, residues 1-351)
UniProt P17106, sequence (whole entry, looked up): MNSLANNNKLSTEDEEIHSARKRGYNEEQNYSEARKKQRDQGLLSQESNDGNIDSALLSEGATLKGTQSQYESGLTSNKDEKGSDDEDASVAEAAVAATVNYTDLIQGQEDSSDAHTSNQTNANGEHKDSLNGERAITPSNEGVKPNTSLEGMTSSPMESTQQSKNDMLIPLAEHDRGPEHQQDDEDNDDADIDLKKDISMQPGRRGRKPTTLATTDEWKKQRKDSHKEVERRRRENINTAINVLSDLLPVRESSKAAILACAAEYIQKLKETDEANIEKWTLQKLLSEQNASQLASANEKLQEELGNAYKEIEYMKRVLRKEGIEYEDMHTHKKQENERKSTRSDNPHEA
Method: protein-binding microarray
Form: double-stranded DNA, one strand shown
Sample: in vitro
Tested at: 0.8 µM
Setting: whole 60-bp probe, no competitor
Reading: higher = stronger binding
Oligonucleotide	fluorescence intensity
CTATTTCATCGACATTAGGTGACGTTTCTCAGTTTCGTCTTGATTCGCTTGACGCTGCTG	529 a.u.
TGTACGAAGCTATTAGTCATGTGTATAGTAGTTAGGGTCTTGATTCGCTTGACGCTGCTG	1240 a.u.
CTACGATACCCTATGAACGTGCACCTTTTTTGTTTCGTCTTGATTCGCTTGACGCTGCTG	616 a.u.
CTAACTATCGTTAATGCCGTGGCATTGGCTATGTTCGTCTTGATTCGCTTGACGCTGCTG	505 a.u.
GAATTTACCGTCAACCTGGTGATGGCGAGATATTAGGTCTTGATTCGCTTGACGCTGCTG	486 a.u.
CTAGAAATTTAACCTCACGAGTTCATGATCATATTCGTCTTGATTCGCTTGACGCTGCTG	710 a.u.
CTACACACTTTAGGAGCCGTGATAAAGAAGACTTTCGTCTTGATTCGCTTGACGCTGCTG	550 a.u.
GAACGCCACACCGATCACAAAACGGCTTCACCATAGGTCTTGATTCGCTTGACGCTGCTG	506 a.u.
GAACAAACTAAATAGCACGTAATTTATTTTTACTAGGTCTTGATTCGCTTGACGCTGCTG	576 a.u.
CTATTTAACTGCACTGACGTCAATACTAACGTATTCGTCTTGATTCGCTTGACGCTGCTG	574 a.u.
CTAAAAAGATAGGGTGAGGTGAGGTTCTCTGACTTCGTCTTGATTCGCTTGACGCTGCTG	527 a.u.
CTAAAGGGTCTTGGTGGTGTTGCAGTTGGACAATTCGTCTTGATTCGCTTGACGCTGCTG	530 a.u.
GAATTGACAAAGGGTGCCGTCACGGTCAGTGATTAGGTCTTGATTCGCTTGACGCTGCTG	551 a.u.
CTACAACTATTAATCATCGTGGAAATTATTATGTTCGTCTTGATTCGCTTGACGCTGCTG	538 a.u.
GAATCCTTGAAGTAGCACATGCGTTAGGGCTAGTAGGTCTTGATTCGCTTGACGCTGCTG	581 a.u.
CCTAACTACTATAATCACGGGGCATAGCTTCGTACAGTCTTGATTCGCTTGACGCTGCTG	1230 a.u.
GAAATAATTCAGCGTGATATGATGGAGTTTTGTTAGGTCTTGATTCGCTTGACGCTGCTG	694 a.u.
GAAACAGAAAAACTTAGGGTGACGACTTTTTAATAGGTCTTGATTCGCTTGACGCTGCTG	512 a.u.
GAAATCATGTCATTGAACGTGTTACGTCTATTATAGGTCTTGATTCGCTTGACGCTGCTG	551 a.u.

Sample 2
Target: CCNB1, cyclin fold, Cln2 fusion (human)
Method: yeast growth competition, sequencing
Sample: yeast
Setting: weak parent motif
Baseline: not given
Reading: higher = stronger binding
Starting sequence: RBL1 docking peptide (human); GSAKRRLFGEDPP
Substitution	normalised enrichment score
GSAKRTLFGEDPP [R6T]	0.00671
GSAKRRLFGEDTP [P12T]	0.847
GSAKRRLFGEDKP [P12K]	0.98
MSAKRRLFGEDPP [G1M]	0.186
GSAKRRLFGCDPP [E10C]	0.418
KSAKRRLFGEDPP [G1K]	0.594
GSAKRRLFGENPP [D11N]	1.17
GSAKRRLFGEDCP [P12C]	0.223
YSAKRRLFGEDPP [G1Y]	2.13
GSAKRRLFGEKPP [D11K]	0.722
GSAKRRLNGEDPP [F8N]	-0.53
GGAKRRLFGEDPP [S2G]	0.734
GSAKRRLFAEDPP [G9A]	1.83
GSAKRRLFGEDPE [P13E]	-0.122
GSAKRQLFGEDPP [R6Q]	-0.235
GSAKRRLFGEDPF [P13F]	0.731
GSAKRRYFGEDPP [L7Y]	0.198
GCAKRRLFGEDPP [S2C]	1.69
GSAKRRLFGEDLP [P12L]	-0.511

Sample 3
Target: Histone acetyltransferase KAT6A, winged helix 2, GST fusion (KAT6A, Homo sapiens, UniProt Q92794, residues 85-181)
Method: protein binding microarray
Form: double-stranded DNA, one strand shown
Sample: in vitro
Tested at: not given
Setting: 8-mer, flanks averaged, mean of 2 arrays, mostly near background
Baseline: not given
Reading: higher = stronger binding
Target sequence (chain): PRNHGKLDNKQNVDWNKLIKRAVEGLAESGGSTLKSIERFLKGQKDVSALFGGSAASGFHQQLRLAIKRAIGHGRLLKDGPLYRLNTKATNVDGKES
Oligonucleotide	E-score
GTTATATA	-0.0638
CCCGGAGC	0.277
ACATCCCC	-0.0565
GTATGTGA	-0.0863
CGGAGATC	-0.023
TGGATGAA	0.0582
ACCCCTAA	-0.165
ATCCCGGG	0.0509
CCGCGGAC	0.116
AGCGTTAG	-0.0681
CCACCCCG	0.149
ACGTTGGG	-0.152
TCGGGCAA	0.181
ACGAGTAA	0.0125
ATTGAGTA	0.0314
AGCAAAAG	-0.0158
CGATGCGA	0.134
CTGATTAA	0.13

Sample 4
Target: RING finger protein unkempt homolog, zinc fingers 1-6, GST-SBP tag (UNK, Homo sapiens, UniProt Q9C0B0, residues 30-357)
UniProt Q9C0B0, sequence (30-357, looked up): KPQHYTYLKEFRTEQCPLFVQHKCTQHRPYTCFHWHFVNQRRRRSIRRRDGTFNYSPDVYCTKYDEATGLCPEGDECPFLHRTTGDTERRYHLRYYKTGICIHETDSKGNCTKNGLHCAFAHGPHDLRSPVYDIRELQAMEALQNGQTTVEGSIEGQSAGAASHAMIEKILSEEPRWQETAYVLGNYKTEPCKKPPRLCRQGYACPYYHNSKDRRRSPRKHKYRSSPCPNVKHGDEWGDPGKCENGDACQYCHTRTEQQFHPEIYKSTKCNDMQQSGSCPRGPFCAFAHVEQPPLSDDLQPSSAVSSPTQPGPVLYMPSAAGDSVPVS
Method: RNA Bind-n-Seq
Form: RNA
Sample: in vitro
Tested at: not given
Setting: RNA with constant flanks, human and mouse sites, ends assumed
Baseline: input RNA pool
Reading: higher = stronger binding
Oligonucleotide	bound/input enrichment [ratio]
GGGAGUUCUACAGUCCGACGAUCCACGAGCAUUGGCUUCGUGAAUUGAGACGGCUCCGCCUGAGGAUAGCAGGAGUGGCGGGGUCGCCGCCGUCCGAAAGAUGAGCCGGAAAGCCUAAGUCGGAGACAGCCGCCUUGGGGCCCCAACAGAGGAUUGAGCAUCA	0.167
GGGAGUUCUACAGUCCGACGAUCCCUUGAUAUAAUACUAACUAAAGUAGAAAGUUUAAAAAGUAGAGAUUUUAGUCUUUUCACUAAUGUCCUUUUACUGUUCCAAGACCCAGCCUUGCAUUUAGCUAUCAUGCCUACGUCCUGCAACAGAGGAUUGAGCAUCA	3.93
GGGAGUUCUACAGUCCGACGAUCAACGAUAUCAAACCAGCAUUUGGCACCAACCAAGAGGAUUAUGCAAGUUACAUUAUGAAUGGGAUCAUCAAGUGGGGUGACCCCGUGACCCGAGUCCUAGAUGACGGAGAGCUGCUGGUCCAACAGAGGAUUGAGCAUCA	0.146
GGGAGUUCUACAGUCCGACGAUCACUGGCCCUCUGGUUCACUUCUAUUAUGAAUAAAUUUGCACCAAUAGCCCCAUUAGUUUUUAAAGAAAUGAGCUGGGUGGGAAAAGUGGAAAUGUAAUUUCUGGUAAGCUUGAGCUACUUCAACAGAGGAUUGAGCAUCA	1.56
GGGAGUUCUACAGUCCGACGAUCUAGAACCCCAAUAUAAAAAAUAAAGUAAUGCAGACCUGGGCAGUUUGCAUUUUUUUUUUUUUUUUUUUUUGGUGGAAGAAGUCUCAGCGUCUCUUAGGACUGACUGUUCAAAGGCUCCUCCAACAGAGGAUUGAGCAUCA	0.881
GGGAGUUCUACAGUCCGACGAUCGUACUAAAAAAGAGAGUAACUCGGGAGUGUUGAGGCUUUGCGUGAAUGUCUGAGAUAGGGCCUGGCUCCACCCCAGGAAGGGAGGCCAACGUCACUAACACUGUAUGUGCAAAUGUCCGCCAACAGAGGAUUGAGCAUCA	0.123
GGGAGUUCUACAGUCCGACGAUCAUCCCCAACGUGCUGCGCCGCACUCGCGAGCGCAUCCUGCGCGUGGCGCCGCCGUUUGUAGUGGUCUACCUGAUCUACACAUGGGGCAACCAGGAGUUUGAGCAGUCGAAAAGGAAGAAUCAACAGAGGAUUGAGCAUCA	0.135
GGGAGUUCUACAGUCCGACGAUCGCUGGGGCAGAGCUCAGCACCCUCAGCCCUGCGGCCGUUCAUCUUGUGUGUUUGUGACUUACUUUUGUAGCCUGUCAUCUUCUGGGCCCAGAGUCAGGGUCUCUGUGUCCCCUGUGCCUCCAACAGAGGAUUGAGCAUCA	0.232

Sample 5
Target: RNA binding protein fox-1 homolog 2, RRM domain, GST-SBP tag (RBFOX2, Homo sapiens, UniProt O43251-10, residues 100-194)
Method: RNA Bind-n-Seq
Form: RNA
Sample: in vitro
Tested at: 365 nM
Setting: natural RNA segment, single round, ends assumed
Baseline: no-protein control
Reading: higher = stronger binding
Construct (chain): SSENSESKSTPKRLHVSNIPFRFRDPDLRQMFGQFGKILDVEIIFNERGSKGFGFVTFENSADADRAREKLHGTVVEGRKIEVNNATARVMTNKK
Oligonucleotide	RBNS enrichment (R)
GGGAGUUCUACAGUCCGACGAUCUCUGGAAGGUGUGUGCACAGAGGGUGCUCAUGGGACUCGCAUGCAGCUCUCAGCACUGGGUGGGAGGGCGUUGGCUUGUCCAGAAUGGGGACGUGGGGCAGCCACCCCUGUGGAAUUCUCGGGUGCCAA	4.91
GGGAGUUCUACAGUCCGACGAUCUUUUUUUAUAUUAAAAGGUUGAGCCAAAGCCCCCAGUGUUUGUAUUUUGAAGCCAAGCUUCACUUCUAAAGUGCCUACAGAGACUUGUAAAUGAAAAUGCAGCUCUGCACUGGAAUUCUCGGGUGCCAA	0.625
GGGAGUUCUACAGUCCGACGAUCUGAUUUCUGUUUUGUCUACAGACUCUUAACAAACCUCAGGAAAACUGUCCCUCUACCAGUUACCUUAGUUGGGGAGCCAGUGCGUGUCACACCAGAUAAGCGGUUGUGUGUGGAAUUCUCGGGUGCCAA	0.294
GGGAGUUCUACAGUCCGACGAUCUCAAUCUCCUUCUAUCCCUCCUCCCCAAGCAGUCAGGUUAUGGGCUAUGGCCCUAUGUCACUCUGCCCUCUUGGUUUCUGCUGCCCUACGGCAGCUGGUGGAAUCUAUUGUGGAAUUCUCGGGUGCCAA	0.198
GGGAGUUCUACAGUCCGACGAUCUUGGGGUACCUGCCUCUCUCUCUCCUGUGGUGUCCCUUCCCUCUCCCAUGUGCUCGGUGUUCAGUGGUGUAUAUUUCUUCUCCCAGACAUGGGGCACACGCCCCAAGGGAUGGAAUUCUCGGGUGCCAA	0.325
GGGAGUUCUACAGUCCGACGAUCCAACCUCUCUCUCUCUCUCUCACUGGGUGGAUAAAUUUGUGAGCCAACCAAGAAGGCUCAGCUGUCAUCACUUCAGAGAGGAAGGAAGAAUCUUCACUUAGCCUCAGACUUGGAAUUCUCGGGUGCCAA	0.386
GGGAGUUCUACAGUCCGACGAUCGAGAUGGGACCCCAGGGGGGGUUAGAGCUGGGUGUCCCGAAAACCCAGGCUGGGGCUAUGCGCCGUCCCCCUACACUUCUGCCAGUGCCUUACUUCCUGGAGACCCACCCUGGAAUUCUCGGGUGCCAA	0.405
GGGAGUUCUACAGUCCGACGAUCUCUCAGAAAGCCAUCAACAGGCUCUGGUAAAACAUAGGUAAAAAUGGGUGAUUAUGAUUGACACUCACCUGCCCUGGAAAGCCAGGGUGUGAGAUGGGUGUCUGGGAGUGUGGAAUUCUCGGGUGCCAA	0.344
